Measured values collected from several papers.
± gives the spread as reported.
Target: Protein deacetylase HDAC6 (HDAC6, Homo sapiens, UniProt Q9UBN7)
Mode: inhibitor
One construct used (Q9UBN7 1-1215): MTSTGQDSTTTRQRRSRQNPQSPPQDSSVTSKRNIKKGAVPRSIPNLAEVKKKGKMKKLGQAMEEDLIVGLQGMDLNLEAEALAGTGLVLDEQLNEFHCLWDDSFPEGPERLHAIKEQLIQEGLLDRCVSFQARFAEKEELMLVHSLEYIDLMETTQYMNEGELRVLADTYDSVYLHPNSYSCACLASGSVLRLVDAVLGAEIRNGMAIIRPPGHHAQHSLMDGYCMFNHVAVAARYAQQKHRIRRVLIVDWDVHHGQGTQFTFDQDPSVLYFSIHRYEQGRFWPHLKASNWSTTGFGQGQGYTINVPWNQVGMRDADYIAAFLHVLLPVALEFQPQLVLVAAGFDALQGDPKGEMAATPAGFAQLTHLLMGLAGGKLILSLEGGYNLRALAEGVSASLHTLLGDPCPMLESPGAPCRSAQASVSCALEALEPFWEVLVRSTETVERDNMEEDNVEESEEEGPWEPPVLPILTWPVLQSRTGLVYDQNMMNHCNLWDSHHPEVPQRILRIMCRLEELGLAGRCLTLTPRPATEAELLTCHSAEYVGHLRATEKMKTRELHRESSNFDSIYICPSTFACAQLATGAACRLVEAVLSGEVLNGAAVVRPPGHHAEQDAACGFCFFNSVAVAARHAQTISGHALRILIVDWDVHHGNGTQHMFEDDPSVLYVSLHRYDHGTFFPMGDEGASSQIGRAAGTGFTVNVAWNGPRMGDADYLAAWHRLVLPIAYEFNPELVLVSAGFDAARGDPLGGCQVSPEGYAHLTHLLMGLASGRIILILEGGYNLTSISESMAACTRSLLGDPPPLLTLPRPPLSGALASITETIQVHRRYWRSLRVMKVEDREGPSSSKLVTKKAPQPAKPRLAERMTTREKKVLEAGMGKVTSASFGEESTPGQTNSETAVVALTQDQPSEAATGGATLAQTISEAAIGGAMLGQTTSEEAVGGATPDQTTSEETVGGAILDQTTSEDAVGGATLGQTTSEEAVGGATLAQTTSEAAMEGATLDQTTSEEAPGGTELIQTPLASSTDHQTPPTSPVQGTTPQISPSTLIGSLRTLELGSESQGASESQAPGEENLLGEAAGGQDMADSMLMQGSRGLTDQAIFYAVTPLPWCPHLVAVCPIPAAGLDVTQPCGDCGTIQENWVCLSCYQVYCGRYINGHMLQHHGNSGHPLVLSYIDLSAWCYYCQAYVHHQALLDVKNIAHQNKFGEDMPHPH

Cc1ncc2c(n1)CN(C(=O)Nc1nc(-c3cccs3)ccc1N)C2  IC50 (deacetylase activity, recombinant enzyme): > 30000 nM
COC(=O)c1ccc(Cn2sc3ccccc3c2=O)cc1  IC50 (enzyme activity): > 10000 nM
COc1ccc(NS(=O)(=O)c2cccc(/C=C/C(=O)NO)c2)cc1  IC50 (enzyme activity, fluorescence): 700 nM
O=c1c2ccccc2on1-c1ccccc1  IC50 (enzyme activity): > 10000 nM
Cc1cc(C)nc(SC(C)C(=O)Nc2ncc(Cc3cccc4ccccc34)s2)n1 (stereo not drawn)  IC50 (enzyme activity, fluorescence): > 100000 nM
O=C(/C=C/c1ccc(CNC(=O)Cc2ccccc2)cc1)NO  IC50 (enzyme activity, fluorescence): 95 nM
CN1CCN(C(=O)N(CCCCCCC(=O)NO)c2ccc(-c3ccc4cnn(C)c4c3)cc2)CC1  IC50 (enzyme activity, fluorescence): 2.62 nM
O=C(CCCC(=O)Nc1ccc(-[c-]2cccc2)cc1)NO.[Fe+2].c1cc[cH-]c1  IC50 (enzyme activity, fluorescence): 1400 nM
CC(CCC(=O)NCc1ccc(C(=O)NO)cc1)C1CCC2C3C(O)CC4CC(O)CCC4(C)C3CCC12C (stereo not drawn)  IC50 (enzyme activity, fluorescence): 58 nM
O=C(NO)c1ccc(Cn2sc3ccccc3c2=O)cc1  IC50 (enzyme activity): 3.2 nM
Cc1cc(C)nc(SCC(=O)Nc2ncc(Cc3cccc(OCc4cn(Cc5ccc(C#N)cc5)nn4)c3)s2)n1  IC50 (enzyme activity, fluorescence): > 100000 nM
O=C(/C=C/c1ccc2c(c1)CCN(Cc1ccccc1)C2=O)NO  IC50 (enzyme activity): 2140 nM
O=C(NO)c1ccc(CN2c3ccccc3Oc3ccc(C(=O)Nc4ccc(C(=O)c5ccccc5)cc4)cc32)cc1  IC50 (enzyme activity): 155 ± 11 nM
O=C(NO)C1=CCCC1  IC50 (enzyme activity, fluorescence): 455 nM
O=C(CCCCCCC(=O)NC[c-]1cccc1)NO.[Fe+2].c1cc[cH-]c1  IC50 (enzyme activity, fluorescence): 6.7 nM
CC(CCC(=O)NCCCCCC(=O)NO)C1CCC2C3C(O)CC4CC(O)CCC4(C)C3CCC12C (stereo not drawn)  IC50 (enzyme activity, fluorescence): 82.1 nM
O=C(/C=C/c1ccc2ccccc2c1)NO  IC50 (enzyme activity, fluorescence): 225 nM
N/C(=N\O)c1ccc2c(c1)Oc1ccccc1N2Cc1cccc(C(=O)NO)c1  IC50 (enzyme activity): 797 nM
O=c1c2ccccc2sn1Cc1ccccc1  IC50 (enzyme activity): 11300 nM
COCCn1cc2c(n1)CN(C(=O)Nc1nc(-c3ccc(F)cc3F)ccc1N)C2  IC50 (deacetylase activity, recombinant enzyme): > 30000 nM
COCCn1cc(COc2cccc(Cc3cnc(NC(=O)C(C)c4ccc(CC(C)C)cc4)s3)c2)nn1 (stereo not drawn)  IC50 (enzyme activity, fluorescence): > 100000 nM

Some of these lines once more:
O=C(/C=C/c1ccc2ccccc2c1)NO  IC50 (enzyme activity, fluorescence): 225 nM
CC(CCC(=O)NCc1ccc(C(=O)NO)cc1)C1CCC2C3C(O)CC4CC(O)CCC4(C)C3CCC12C (stereo not drawn)  IC50 (enzyme activity, fluorescence): 58 nM
